{"data": "Measured values gathered from unrelated publications", "note": "Protocols differ between the studies behind these lines. “And” joins repeats or separate records; there may be more than shown. ± marks the error that the study gave."}
{"SMILES": "CCCC[C@H]1C(=O)N(C)[C@@H](CCCC)C(=O)N[C@@H](CCCNC(=O)CN2CCN(CC(=O)O)CCN(CC(=O)O)CCN(CC(=O)O)CC2)C(=O)N[C@H](C(=O)NCC(N)=O)CSCC(=O)N[C@@H](Cc2ccc(O)cc2)C(=O)N(C)[C@@H](C)C(=O)N[C@@H](CC(N)=O)C(=O)N2CCC[C@H]2C(=O)N[C@@H](Cc2c[nH]cn2)C(=O)N[C@@H](CC(C)C)C(=O)N(C)CC(=O)N[C@@H](Cc2c[nH]c3ccccc23)C(=O)N[C@@H](CO)C(=O)N[C@@H](Cc2c[nH]c3ccccc23)C(=O)N1C [gallium-68 labelled]", "test system": "NOD/SCID mice, CHO-hPD-L1 xenograft, tumour", "conditions": "30 min p.i.", "measurement": "tumour uptake", "value": "7.61 ± 0.67 %ID/g"}
{"SMILES": "CC(C)[C@@H]1NC(=O)CNC(=O)[C@H](CC(N)=O)NC(=O)[C@H](CCCNC(=N)N)NC(=O)[C@H](Cc2ccc(O)cc2)NC(=O)[C@H](C(C)C)NC(=O)[C@@H](NC(=O)[C@@H](NC(=O)[C@H](CC(N)=O)NC(=O)[C@H](Cc2c[nH]c3ccccc23)NC(=O)[C@H](C)NC(=O)[C@H](Cc2ccccc2)NC(=O)CNC(=O)[C@H](CCCCN)NC(=O)[C@H](Cc2ccccc2)NC(=O)[C@H](Cc2ccccc2)NC(=O)[C@H](CCCCN)NC(=O)OCC2c3ccccc3-c3ccccc32)C(C)C)CSSC[C@@H](C(=O)N[C@@H](Cc2c[nH]cn2)C(=O)N[C@@H](CCCNC(=N)N)C(=O)N[C@@H](CCCNC(=N)N)C(=O)N[C@@H](C)C(=O)N[C@@H](CC(N)=O)C(N)=O)NC(=O)[C@H](C(C)C)NC(=O)[C@H](CCCNC(=N)N)NC1=O", "test system": "ICR mice, serum", "conditions": "intraductal mammary, 5 mg/kg, day 5", "measurement": "phosphorus", "value": "3.19 ± 0.18 mmol/L"}
{"SMILES": "CSCC[C@@H]1NC(=O)[C@H](C(C)C)NC(=O)[C@H](CCCNC(=N)N)NC(=O)CNC(=O)[C@@H]2CCCN2C(=O)[C@@H](NC(=O)CNC(=O)[C@H](CO)NC(=O)CNC(=O)[C@H](CO)NC(=S)Nc2ccc(C[C@H]3CN(CC(=O)O)CCN(CC(=O)O)CCN3CC(=O)O)cc2)CSSC[C@@H](C(N)=O)NC(=O)[C@@H]2CCCN2C(=O)CNC(=O)[C@H](CCC(=O)O)NC(=O)[C@H](CC(=O)O)NC(=O)[C@H](CC(=O)O)NC(=O)CNC(=O)[C@H](CC(C)C)NC(=O)[C@H](Cc2c[nH]cn2)NC(=O)[C@H](CC(C)C)NC(=O)CNC(=O)[C@H](Cc2c[nH]cn2)NC1=O [copper-64 labelled]", "assay": "dynamic PET", "test system": "CD rat, myocardial infarction model, remote myocardium", "conditions": "intravenous, 18.5 MBq, 5 to 60 min", "measurement": "half-life", "value": "19.8 ± 6.3 min"}
{"SMILES": "CN1Cc2cc(Cl)ccc2-n2c(nnc2C2CCN(c3cccc([18F])n3)CC2)C1", "assay": "PET two-tissue compartment model", "test system": "rhesus monkey, male, striatum", "conditions": "intravenous, dose not given, 80 min scan, baseline scan", "measurement": "total volume of distribution", "value": "1.08 ± 0.3 mL/cm3"}
{"SMILES": "C=CC(=O)Nc1cccc(Cn2ncc3cnc(Nc4cnn(CCOC)c4)nc32)c1", "test system": "Sprague-Dawley rat, female", "conditions": "oral, 180 mg/kg, day 28, 28-day subacute toxicity study", "measurement": "RDW-SD", "value": "34.5 ± 1.47%"}
{"SMILES": "N#[11C]c1ccc(-c2csc(NN=C3CCCC3)n2)cc1", "test system": "C57BL/6 mice, male, heart", "conditions": "intravenous, 3 MBq, 30 min", "measurement": "radioactivity uptake", "value": "1.78 ± 0.24 %ID/g"}
{"SMILES": "CSCC[C@H](NC(=O)[C@@H](NC(=O)[C@H](CC(C)C)NC(=O)[C@@H](NC(=O)[C@H](Cc1c[nH]cn1)NC(=O)CCCCCNC(=O)[C@H](CCCNC(=N)N)NC(=O)[C@H](CCCNC(=N)N)NC(=O)[C@H](CCCNC(=N)N)NC(=O)[C@H](CCC(N)=O)NC(=O)[C@H](CCCNC(=N)N)NC(=O)[C@H](CCCNC(=N)N)NC(=O)[C@H](CCCCN)NC(=O)[C@H](CCCCN)NC(=O)[C@H](CCCNC(=N)N)NC(=O)CNC(=O)[C@@H](N)Cc1ccc(O)cc1)C(C)C)C(C)C)C(=O)N[C@@H](CS)C(=O)N[C@@H](C)C(=O)N[C@H](C(N)=O)[C@@H](C)O", "test system": "C57BL/6J mice", "conditions": "Alzet osmotic pump, 3 mg/kg, 8 weeks", "measurement": "total bilirubin", "value": "0.1 mg/dL and 0.2 mg/dL"}
{"SMILES": "CC(C)[C@H](NC(=O)[C@@H](NC(=O)[C@H](CCCNC(=N)N)NC(=O)[C@H](CCCNC(=N)N)NC(=O)[C@H](CCCNC(=N)N)NC(=O)[C@H](CCC(N)=O)NC(=O)[C@H](CCCNC(=N)N)NC(=O)[C@H](CCCNC(=N)N)NC(=O)[C@H](CCCCN)NC(=O)[C@H](CCCCN)NC(=O)[C@H](CCCNC(=N)N)NC(=O)CN)[C@@H](C)O)C(=O)N[C@H](C(=O)N[C@@H](CO)C(=O)N1CCC[C@H]1C(=O)O)[C@@H](C)O", "test system": "ICR mice, male, brain", "conditions": "intranasal, 10 mg/kg daily, 4 weeks", "measurement": "organ weight", "value": "0.559 ± 0.043 g"}
{"SMILES": "C#Cc1c(F)ccc2cc(O)cc(-c3ncc4c(N5CC6CCC(C5)N6C(=O)OC(C)OC(C)=O)nc(OC[C@@]56CCCN5C[C@H](F)C6)nc4c3F)c12 (stereo partly drawn)", "assay": "chemical stability", "test system": "simulated intestinal fluid", "conditions": "1 µM, 30 min", "measurement": "compound remaining", "value": "106%"}
{"SMILES": "CC[C@H](C)[C@H](NC(=O)[C@H](CCCCN)NC(=O)CNC(=O)[C@H](CC(C)C)NC(=O)[C@H](Cc1ccccc1)NC(=O)[C@H](CCCCN)NC(=O)[C@H](CO)NC(=O)[C@H](Cc1ccccc1)NC(=O)[C@H](Cc1c[nH]c2ccccc12)NC(=O)[C@H](CCC(N)=O)NC(=O)[C@@H](NC(=O)[C@H](Cc1ccccc1)NC(=O)CCCCCNC(=O)CN1CCN(CC(=O)O)CCN(CC(=O)O)CCN(CC(=O)O)CC1)C(C)C)C(=O)N[C@@H](CCC(=O)O)C(=O)N1CCC[C@H]1C(=O)N[C@@H](CC(=O)O)C(=O)N[C@H](C(=O)N[C@@H](CO)C(=O)N[C@@H](CCC(N)=O)C(=O)N[C@H](C(=O)N[C@@H](CCC(N)=O)C(=O)N[C@@H](CC(=O)O)C(=O)N1CCC[C@H]1C(=O)N[C@@H](CC(N)=O)C(=O)N[C@@H](CC(=O)O)C(=O)N[C@@H](CCC(N)=O)C(=O)N[C@@H](Cc1ccc(O)cc1)C(=O)N[C@@H](CCC(=O)O)C(=O)N1CCC[C@H]1C(=O)N[C@@H](Cc1ccccc1)C(=O)O)C(C)C)C(C)C [copper-64 labelled]", "test system": "BALB/c mice, male, CT26 tumour-bearing, bone", "conditions": "2 h, anti-PD1 plus anti-CTLA4 treated", "measurement": "tissue uptake", "value": "0.54 ± 0.1 %ID/g"}
{"SMILES": "CC(=O)NCCCC[C@@H]1NC(=O)[C@H](Cc2c[nH]c3c(C)cccc23)NC(=O)[C@H]([C@@H](C)O)NC(=O)[C@H](CC(N)=O)NC(=O)[C@@H](NC(C)=O)C(C)(C)SSC(C)(C)[C@@H](C(=O)N[C@@H](Cc2ccc(OCCN)cc2)C(=O)N[C@@H](Cc2ccc3ccccc3c2)C(=O)NC2(C(=O)N[C@@H](CCC(=O)O)C(=O)N[C@@H](CC(N)=O)C(=O)N[C@@H](Cc3cccnc3)C(=O)N(C)CC(N)=O)CCOCC2)NC1=O", "test system": "cynomolgus monkey, colon", "conditions": "intravenous, 1 mg/kg", "scale": "relative to: plasma concentration", "measurement": "tissue concentration", "value": "48%"}
{"SMILES": "O=C1NC2(CC2)COc2ncc(F)cc2[C@H]2COCCN2c2ccn3ncc1c3n2", "test system": "Sprague-Dawley rat, female, serum", "conditions": "oral, 20 mg/kg/day, end of treatment, 4-week subacute toxicity", "measurement": "serum LDH activity", "value": "768 ± 410 U/L"}
{"note": "Some of these lines once more:"}
{"SMILES": "CN1Cc2cc(Cl)ccc2-n2c(nnc2C2CCN(c3cccc([18F])n3)CC2)C1", "assay": "PET two-tissue compartment model", "test system": "rhesus monkey, male, striatum", "conditions": "intravenous, dose not given, 80 min scan, baseline scan", "measurement": "total volume of distribution", "value": "1.08 ± 0.3 mL/cm3"}
